{"data": "Experimental data pooled from the literature", "note": "Each numbered part is a random draw from the data of one study; scales do not carry over between parts. Substitutions count along the parent as printed."}
{"data": "Series 1", "target": "Eukaryotic initiation factor 4A-I (EIF4A1, Homo sapiens, UniProt P60842, residues 1-406, full length assumed)", "method": "RNA Bind-n-Seq", "molecule type": "RNA", "medium": "in vitro", "tested at": "not given", "notes": "4-mer, random 30-nt RNA, single round", "added": "RocA, ADP, phosphate", "baseline": "input library", "direction": "higher = stronger binding", "sequence of UniProt P60842 (whole entry, looked up)": "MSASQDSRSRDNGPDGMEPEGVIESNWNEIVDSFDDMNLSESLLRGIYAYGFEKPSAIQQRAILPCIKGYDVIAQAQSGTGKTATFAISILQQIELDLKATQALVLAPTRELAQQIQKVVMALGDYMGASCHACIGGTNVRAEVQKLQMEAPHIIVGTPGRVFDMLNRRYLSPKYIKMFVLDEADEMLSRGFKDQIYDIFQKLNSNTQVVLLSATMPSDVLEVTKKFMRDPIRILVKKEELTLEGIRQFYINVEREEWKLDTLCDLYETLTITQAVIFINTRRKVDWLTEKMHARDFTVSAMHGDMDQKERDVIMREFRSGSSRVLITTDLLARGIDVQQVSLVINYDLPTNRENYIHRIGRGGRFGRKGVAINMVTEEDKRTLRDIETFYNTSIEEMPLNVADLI"}
{"Strand": "CAUG", "4-mer enrichment": "0.817 fold"}
{"Strand": "GGAC", "4-mer enrichment": "0.753 fold"}
{"Strand": "UAGA", "4-mer enrichment": "1.6 fold"}
{"Strand": "CAUC", "4-mer enrichment": "0.587 fold"}
{"Strand": "GGCA", "4-mer enrichment": "0.806 fold"}
{"Strand": "AAUC", "4-mer enrichment": "0.726 fold"}
{"Strand": "AAUA", "4-mer enrichment": "1.07 fold"}
{"Strand": "UUGG", "4-mer enrichment": "1.2 fold"}
{"data": "Series 2", "target": "RNA binding protein fox-1 homolog 2, RRM domain, GST-SBP tag (RBFOX2, Homo sapiens, UniProt O43251-10, residues 100-194)", "method": "RNA Bind-n-Seq", "molecule type": "RNA", "medium": "in vitro", "tested at": "365 nM", "notes": "natural RNA segment, single round, ends assumed", "baseline": "no-protein control", "direction": "higher = stronger binding", "shared flanks, not repeated": "GGGAGUUCUACAGUCCGACGAUC … UGGAAUUCUCGGGUGCCAA", "Residues (chain)": "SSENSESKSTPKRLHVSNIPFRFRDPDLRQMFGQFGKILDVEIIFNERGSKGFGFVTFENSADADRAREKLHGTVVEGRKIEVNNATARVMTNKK"}
{"Strand": "UUUUCAAGUUUUACAGAAGCAGAGCUUUUCCCUAAGUUCCUCUUCGGUUCACUGUAGAUCCAGUUCUUCCAGCCGCUUCAGCACUGAGGCGCCAUGAAUGCGGUUUCUCU", "RBNS enrichment (R)": 0.279}
{"Strand": "UCAUAGACCUUUUCAUUAUGAUACUGUAUCUUGCAUAGUUGAAUCUUCUCAUUUAUACAGUGCCUUUUUCUCAUGCUCAUUGUCUACUGACUUUAAGGCAGGCAACACUG", "RBNS enrichment (R)": 0.398}
{"Strand": "UUCCUGGCCUGGCCAGAGCUGGAGCCCCCACAGGGUAAGGAAGAGAGAGUGGGAGGCAGAGUGUGAUGGGGAGGAGGGACAGGAAGACCCUUUUAAUGAUGAGGGUAACU", "RBNS enrichment (R)": 1.11}
{"Strand": "GCGGAAGUCAUCAAGCACUUGGGCGUUCUGCUCCGAUGCAGCUGUGGCCAGCGGUCAGGCUGCUGAGCCGGGUUUCUGGAUAUGCUGCUGCUGUUGAAUCCACUGACUUG", "RBNS enrichment (R)": 0.272}
{"Strand": "AUUUUCUAUUUAUUAUUGUUACAAUAGGUAAUAGUUAUAGCAAUUAUUUAUUGAUUUGUAACAACUUGUUUUUAACCAAACUUUGUAGCAUGGAAAAAAUUUUCCAUCCA", "RBNS enrichment (R)": 0.598}
{"Strand": "AAUUUUUGUUUGAUAUAAGUUAGCUUGUUAGCAUAUGCCCUAGAGGGCCUCCAUCCCUGUAUUCUAAUGUUUUUACUCAAAGCUCUAGCCUUUAGGAUAGGUGAAUAUGU", "RBNS enrichment (R)": 0.329}
{"Strand": "GGAAACUCCCCACCUCACCCUGACAACCCUUGAUGUUUCCCAAAGUCUUUAGACAGCUGUGUGCAUGUUCAAAGACUUCAGGGGUGGAGUCUCACAAAGUCUUGUUUGAC", "RBNS enrichment (R)": 0.428}
{"Strand": "UCCCAUCAGAACCCUGCCUGCCCACCUGCAACUCCCCCCCAACAAUGCCAUUCCCACUUGCCCCAGAGAAGCUACUCGGCCAAACCUAGCCAGGGUCUGUUCUUGUGGAC", "RBNS enrichment (R)": 1.76}
{"data": "Series 3", "target": "Max-binding protein MNT, bHLH-zipper, MAX partner unstated (MNT, Homo sapiens, UniProt Q99583, residues 220-300)", "method": "protein-binding microarray", "molecule type": "double-stranded DNA, one strand shown", "medium": "in vitro", "tested at": "not given", "notes": "k-mer, scored over probes, only values ≥0.25", "direction": "higher = stronger binding", "Construct (chain)": "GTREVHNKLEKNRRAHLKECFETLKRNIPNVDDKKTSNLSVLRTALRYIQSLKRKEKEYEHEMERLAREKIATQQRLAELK"}
{"Strand": "GTGGGGTA", "E-score": 0.273}
{"Strand": "ACGCGGGC", "E-score": 0.262}
{"Strand": "ACGGGTGG", "E-score": 0.306}
{"Strand": "AGGCGCAT", "E-score": 0.254}
{"Strand": "ACGCACGA", "E-score": 0.384}
{"Strand": "GCCTCCCC", "E-score": 0.278}
{"Strand": "CCCCAACC", "E-score": 0.354}
{"Strand": "CCACGTCG", "E-score": 0.284}
{"data": "Single results of other studies", "parent": "viral docking peptide; PGASRRLFGSSAD; partner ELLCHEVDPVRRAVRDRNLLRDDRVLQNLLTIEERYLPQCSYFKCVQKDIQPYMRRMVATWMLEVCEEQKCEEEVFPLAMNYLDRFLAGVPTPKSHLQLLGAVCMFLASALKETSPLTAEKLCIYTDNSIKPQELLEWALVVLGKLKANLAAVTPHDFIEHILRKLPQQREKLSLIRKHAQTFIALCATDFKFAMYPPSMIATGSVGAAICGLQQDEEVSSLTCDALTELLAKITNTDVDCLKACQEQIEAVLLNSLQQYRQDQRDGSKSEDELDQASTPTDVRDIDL"}
{"Change": "AGASRRLFGSSAD [P1A]", "target": "CCND2, cyclin fold, Cln2 fusion (human)", "test": "yeast growth competition, sequencing", "test system": "yeast", "conditions": "weak parent motif", "how to read": "baseline: not given, higher = stronger binding", "endpoint": "normalised enrichment score", "value": -0.13}
{"note": "A few entries again (series 2):"}
{"Strand": "UUCCUGGCCUGGCCAGAGCUGGAGCCCCCACAGGGUAAGGAAGAGAGAGUGGGAGGCAGAGUGUGAUGGGGAGGAGGGACAGGAAGACCCUUUUAAUGAUGAGGGUAACU", "RBNS enrichment (R)": 1.11}
{"Strand": "UCAUAGACCUUUUCAUUAUGAUACUGUAUCUUGCAUAGUUGAAUCUUCUCAUUUAUACAGUGCCUUUUUCUCAUGCUCAUUGUCUACUGACUUUAAGGCAGGCAACACUG", "RBNS enrichment (R)": 0.398}
